Assay results of several laboratories.
Each numbered part is a random draw from the data of one study; scales do not carry over between parts. Changes are numbered by the printed parent chain.

Sample 1 — technique: universal PBM; molecule type: double-stranded DNA, one strand shown; matrix: in vitro; concentration: not given; direction: higher = stronger binding; quantity: E-score
Target: Sal-like protein 4, full length isoform B (SALL4, Homo sapiens, UniProt Q9UJQ4-2, residues 1-616)
Setting: 8-mer, flanks averaged, mean of replicates
AACCAAGC: -0.119
AGGCTTGC: -0.11
CCTCGACC: -0.134
AACACGGG: -0.197
ACTAACCT: 0.0051
CAGATTAG: -0.0166
CGACCAAG: -0.185
CCGCGGCA: -0.226
AACTTGAG: -0.147
ACATGTGA: 0.147
GATGACCA: -0.0247
CTTAAAGC: -0.0738
ATGACCCG: -0.158
AGCTATCC: -0.177
CGGTCCTA: -0.283
ACCTAGGA: -0.0193
CCTATAAA: 0.234
ACTGCCTG: -0.107
GACCGGAA: -0.334
AGGGGGGG: -0.335
CCAACTAG: 0.0637
CGCTATAG: 0.0789
ACTACGCT: -0.00982
CTTCTCGC: -0.0367
CATGCGCG: -0.237

Sample 2 — technique: RNAcompete; molecule type: RNA; matrix: in vitro; concentration: 20 nM; setting: 7-mer, probes averaged, single round; baseline: mean of 7-mers; direction: higher = stronger binding; quantity: 7-mer Z-score
Target: PABPC1L2, full length, GST fusion (mouse, UniProt A0ABA7IW68)
Construct (chain): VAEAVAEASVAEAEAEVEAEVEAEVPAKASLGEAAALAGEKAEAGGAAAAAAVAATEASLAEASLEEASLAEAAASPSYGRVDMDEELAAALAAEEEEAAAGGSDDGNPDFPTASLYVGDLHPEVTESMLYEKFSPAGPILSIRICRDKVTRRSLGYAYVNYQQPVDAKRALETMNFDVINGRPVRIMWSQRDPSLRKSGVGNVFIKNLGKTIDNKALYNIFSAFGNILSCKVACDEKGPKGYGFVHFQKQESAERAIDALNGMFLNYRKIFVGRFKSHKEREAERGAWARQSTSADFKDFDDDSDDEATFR
AUGGUGU: -0.208
ACACUAU: -0.0391
UACCUUA: -0.271
CGCAUUG: -0.233
UGCAACG: -0.202
CCAUCAU: -0.36
UACCUAG: -0.179
AAUAGGA: 0.385
CAGAGCA: 0.128
AAUUCCC: -0.0663
AGCUCAU: -0.103
GCGUUUC: -0.474
GUUAUCU: -0.204
UCUGCGA: -0.132
GCCGCCU: -0.371
CACGUAU: -0.0464
GAAAAAA: 21.2
ACGCCUC: -0.347
UAUAAUA: -0.0482
GCAUCUC: -0.266
GCCCCUC: -0.354
CGGGGGA: 0.45
ACGGUGG: 0.0388
ACGCGUG: -0.233
AACCAGC: -0.0047

Sample 3 — technique: protein-binding microarray; molecule type: hairpin DNA; matrix: in vitro; concentration: not given; baseline: not given; direction: higher = stronger binding; quantity: median fluorescence; all sequences stand within: GAGGCC … GGCCTCACACTCTT
Target: POU domain, class 6, transcription factor 1, POU and homeodomain (POU6F1, Homo sapiens, UniProt Q14863, residues 311-611)
Setting: whole hairpin DNA, median over replicate spots
Residues (chain): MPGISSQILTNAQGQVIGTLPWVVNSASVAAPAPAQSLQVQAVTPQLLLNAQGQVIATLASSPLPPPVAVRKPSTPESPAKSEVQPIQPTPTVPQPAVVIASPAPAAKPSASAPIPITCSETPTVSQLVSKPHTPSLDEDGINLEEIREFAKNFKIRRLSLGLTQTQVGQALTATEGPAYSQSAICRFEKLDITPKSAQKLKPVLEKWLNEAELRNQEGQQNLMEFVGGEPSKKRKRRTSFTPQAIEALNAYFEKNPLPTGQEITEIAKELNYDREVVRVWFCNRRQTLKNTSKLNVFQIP
ATACGGAGGTGCCTCCTGGCACCTCCGTAT: 328 a.u.
ATAATGCGGTGCCTCCTGGCACCGCATTAT (5mC at 13 29): 556 a.u.
ATAATGAGGTGCCTCCTGGCACCTCATTAT (5mC at 28): 2440 a.u.
TTAATTAGGTGCCTCCTGGCACCTAATTAA: 1790 a.u.
ATACTGAGGTGCCTCCTGGCACCTCAGTAT: 347 a.u.
ATAATGAGGCGCCTCCTGGCGCCTCATTAT: 2000 a.u.
ATAATTAGTTGCCTCCTGGCAACTAATTAT: 2480 a.u.
ATCGTGAGGTGCCTCCTGGCACCTCACGAT (5mC at 9): 328 a.u.
ATACGTAGGTGCCTCCTGGCACCTACGTAT (5mC at 10 32): 348 a.u.
ATAATGGGGTGCCTCCTGGCACCCCATTAT (5mC at 30): 1940 a.u.
CGAATTAGGTGCCTCCTGGCACCTAATTCG: 417 a.u.
ATAATGACGTGCCTCCTGGCACGTCATTAT: 872 a.u.
CTAATTAGGTGCCTCCTGGCACCTAATTAG: 1530 a.u.
ATACTTAGGTGCCTCCTGGCACCTAAGTAT (5mC at 10): 408 a.u.
ACAATGAGGTGCCTCCTGGCACCTCATTGT (5mC at 8): 478 a.u.
GTAATGAGGTGCCTCCTGGCACCTCATTAC (5mC at 36): 1090 a.u.

Sample 4 — technique: DHFR PCA, dose-response; matrix: yeast; setting: Hill fit, mean, not affinity; together with: (+)-ABA, dose series; direction: lower = more sensitive; quantity: ABA EC50
Target: ABI1, truncated, D143A, DHFR fusion (Arabidopsis thaliana, UniProt P49597)
Starting sequence: PYL1, truncated, DHFR fusion (Arabidopsis thaliana, UniProt Q8VZS8); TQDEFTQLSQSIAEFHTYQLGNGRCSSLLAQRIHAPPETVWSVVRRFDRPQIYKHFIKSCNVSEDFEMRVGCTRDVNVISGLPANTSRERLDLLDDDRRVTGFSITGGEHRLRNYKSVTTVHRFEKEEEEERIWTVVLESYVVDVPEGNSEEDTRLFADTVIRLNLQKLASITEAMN
D97S: 2.58 µM
S150M: 57.7 µM
D159G: 28.5 µM
E4T: 2.19 µM
T1F: 2.77 µM
R49C: 2.53 µM
Y53C: 159 µM
E129I: 3.32 µM
C72D: 3.66 µM
S59P: 657 µM
Y53N: 378 µM
D95I: 34.5 µM
F5G: 5.78 µM
E152G: 4.94 µM
L169V: 251 µM
P36K: 3.12 µM
R45E: 293 µM
H55L: 0.745 µM
H34T: 9.01 µM
G21S: 2.69 µM
V62T: 3.61 µM
R49W: 129 µM
R99T: 84.2 µM
D3P: 2.32 µM
F5K: 7.11 µM

Sample 5 — technique: protein binding microarray; molecule type: double-stranded DNA, one strand shown; matrix: in vitro; concentration: not given; baseline: not given; direction: higher = stronger binding; quantity: E-score
Target: Histone acetyltransferase KAT6A, both winged helices, GST fusion (KAT6A, Homo sapiens, UniProt Q92794, residues 1-181)
Setting: 8-mer, flanks averaged, mean of 2 arrays, mostly near background
Residues (chain): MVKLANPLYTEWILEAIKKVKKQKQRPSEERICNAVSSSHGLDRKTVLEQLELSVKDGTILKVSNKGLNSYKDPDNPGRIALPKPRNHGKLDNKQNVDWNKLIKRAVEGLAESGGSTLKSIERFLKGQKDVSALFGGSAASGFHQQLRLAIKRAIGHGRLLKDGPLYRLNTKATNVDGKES
CATGGACA: -0.216
ATCACAGC: 0.00154
ATTGCCCA: -0.0998
CAGACCCG: 0.209
ACACATTC: -0.0554
CCTTCTCA: -0.128
AAATGGGG: -0.326
AAAGCATG: -0.0522
AACCACCC: -0.0786
CGATATGC: 0.146
ATATGGGA: -0.165
GTCTAGGA: -0.0281
CATAGTGA: -0.18
GCCGCGCA: 0.364
GGGTGGAA: -0.173
AATCAACA: -0.145
CCGAGAGC: 0.0665
GAGAGAAA: -0.165
TAACGTGA: 0.0799
GCAATTAC: 0.135

Sample 6 — technique: RNA Bind-n-Seq; molecule type: RNA; matrix: in vitro; concentration: 365 nM; baseline: no-protein control; direction: higher = stronger binding; quantity: RBNS enrichment (R)
Target: RNA binding protein fox-1 homolog 2, RRM domain, GST-SBP tag (RBFOX2, Homo sapiens, UniProt O43251-10, residues 100-194)
Setting: natural RNA segment, single round, ends assumed
All sequences stand within: GGGAGUUCUACAGUCCGACGAUC … UGGAAUUCUCGGGUGCCAA
Residues (chain): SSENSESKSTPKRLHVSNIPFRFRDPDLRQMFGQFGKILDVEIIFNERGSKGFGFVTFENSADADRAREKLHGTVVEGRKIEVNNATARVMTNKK
GAUUUUUGUGAUUAUAGUAAUAAAAUGAUAUUACUUGUGAAAUAUUAGUAAUAAAUUAUUUGAGUAUAUAAACACGUUAGGGAUCUUUUUUUAAUAGGAAAAAUACUUUC: 0.731
CCCUCCCGCCCCGGGUCUGACGGGGGUGCGCCCCCGGCUCGGGCUCACUCCCACUAUCUCUACGGACACAUGCUCUCCGCCUUCCGGGACUAGCCACGGCCCCCAGGGCG: 0.554
UGGUACAAUCAGAGCUCCGUGGGGACUGUAGGGAGCAGGGUGUUACUACUGGCCGUUCUUCCCACAGUGAUUAACGGUAGAGAUCAAGCUCAGUCCCCUUUAUCCCCCCC: 0.223
CUAUGGGUGAAACCGGCUCUAGUUCUGUCCCCAGCCCCACCCUCUGGUCUCCUACUCUCUGGCCCUGUGUUUGGGAAAAAUCACUAUUAUGUCUUAAUUCUUUGCCUGUG: 0.816
UAUAGUGGAGAAACCAGAAAGAAACUGAGCCCUAGGCUGGGCAUUCCCACUGCAGUGGACCUACUCGGCUUCCUCCCACUGCAAUCCAUUGCCUCUCAGCAUUCCGGCCU: 0.711
UUGUUAAAAGCAGCAAGAAGCCUGGUAAAACUGUGACUUUUCCCCAAAUGUCAAUCUUUAUUAGAAAGCAUUUUCUAGGUGUGUUUAGUGUGCAAAGAAACUUUCUAACC: 0.878
GAAGAAGAAAGAUUCAGUAACUUGAAGAGAAGAUGUGAAGUGUUUAUCUGUGAACUGCAGUGCUGUAUCAAAGCAGUCCAGUAACCUGCAGUACUGAGUAUGGUGCUUGC: 0.635
CCAGCUCCCUGCACCCAGAGGGGGCCUUCUCACCUCUUCUCAGGAAGCAGCUACGACCCAUUGCCCUCCUACCUGCUUCGCUACUGGUCCAUGGUACAGACUGUUCCAGA: 0.472
UUCUGGGGGCUACCAAAACACCCCUUCUGGAGUAGAAGCUGCUGGAAGGCAGGCCUGAGCCAUUCACCACGGACAGGAAGAGCAGCUCUGGCUAUCACCACUGGCCUCUG: 0.168
UUGGAAUGGGAGUCUGAAAUGGGGCUACUGUUUCAGUCCUAAUGUGCUGUGUGACAUUGGGACAACACUUUCCCUCUCUGGACCUCAGUUUCCCUCUGUAUACAAGGAUC: 0.3
GCCCGUUUUUACUCAGACAGGGACAGUGUUCACCUACUUGAUACUGCCGUGUUUCUUACCCUCCCUUGAAGUUUCUCUAAGCUCAUCACAGCCUAGAGUUCAGGAAAGUU: 0.271
CUGAAAAUAGAGUAUUUUUUUAAAGUAAGGCUGUCUUGGUUUAAAAGCAGAUUACAGAAAUGUAAGUCAACUUAAGAACGGUGAAUGAAUGUAAAAACAUUCAGUUGAGA: 0.356
